Assay results collected from several papers.
Each numbered part is a random draw from the data of one study; scales do not carry over between parts. Changes are numbered by the printed parent chain.
UniProt P10721, sequence (whole entry, unmodified, looked up): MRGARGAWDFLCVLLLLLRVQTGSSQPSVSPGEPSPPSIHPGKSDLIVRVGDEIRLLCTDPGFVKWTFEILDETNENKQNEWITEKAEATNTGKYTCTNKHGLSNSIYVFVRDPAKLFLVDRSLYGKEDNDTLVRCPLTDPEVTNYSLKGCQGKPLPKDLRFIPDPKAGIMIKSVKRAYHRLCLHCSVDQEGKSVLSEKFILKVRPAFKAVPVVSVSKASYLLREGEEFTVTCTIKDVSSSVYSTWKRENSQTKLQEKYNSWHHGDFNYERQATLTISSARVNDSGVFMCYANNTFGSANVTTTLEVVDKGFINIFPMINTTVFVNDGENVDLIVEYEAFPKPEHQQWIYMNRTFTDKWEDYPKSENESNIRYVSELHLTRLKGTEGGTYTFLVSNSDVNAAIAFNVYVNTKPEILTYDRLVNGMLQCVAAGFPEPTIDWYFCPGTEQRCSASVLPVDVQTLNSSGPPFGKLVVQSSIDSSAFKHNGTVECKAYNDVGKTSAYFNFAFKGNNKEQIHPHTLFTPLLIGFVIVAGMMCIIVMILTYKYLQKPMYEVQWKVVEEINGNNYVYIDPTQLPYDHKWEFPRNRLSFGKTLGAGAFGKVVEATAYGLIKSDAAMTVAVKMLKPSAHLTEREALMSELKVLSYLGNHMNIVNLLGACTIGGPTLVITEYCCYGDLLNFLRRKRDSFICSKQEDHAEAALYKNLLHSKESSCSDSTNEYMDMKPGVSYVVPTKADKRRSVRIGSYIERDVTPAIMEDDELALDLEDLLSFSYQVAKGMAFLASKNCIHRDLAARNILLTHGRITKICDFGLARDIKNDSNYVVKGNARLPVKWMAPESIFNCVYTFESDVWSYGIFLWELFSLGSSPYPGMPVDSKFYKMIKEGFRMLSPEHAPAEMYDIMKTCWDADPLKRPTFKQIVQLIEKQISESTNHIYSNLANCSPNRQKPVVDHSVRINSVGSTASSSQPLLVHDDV
UniProt O00750, sequence (whole entry, looked up): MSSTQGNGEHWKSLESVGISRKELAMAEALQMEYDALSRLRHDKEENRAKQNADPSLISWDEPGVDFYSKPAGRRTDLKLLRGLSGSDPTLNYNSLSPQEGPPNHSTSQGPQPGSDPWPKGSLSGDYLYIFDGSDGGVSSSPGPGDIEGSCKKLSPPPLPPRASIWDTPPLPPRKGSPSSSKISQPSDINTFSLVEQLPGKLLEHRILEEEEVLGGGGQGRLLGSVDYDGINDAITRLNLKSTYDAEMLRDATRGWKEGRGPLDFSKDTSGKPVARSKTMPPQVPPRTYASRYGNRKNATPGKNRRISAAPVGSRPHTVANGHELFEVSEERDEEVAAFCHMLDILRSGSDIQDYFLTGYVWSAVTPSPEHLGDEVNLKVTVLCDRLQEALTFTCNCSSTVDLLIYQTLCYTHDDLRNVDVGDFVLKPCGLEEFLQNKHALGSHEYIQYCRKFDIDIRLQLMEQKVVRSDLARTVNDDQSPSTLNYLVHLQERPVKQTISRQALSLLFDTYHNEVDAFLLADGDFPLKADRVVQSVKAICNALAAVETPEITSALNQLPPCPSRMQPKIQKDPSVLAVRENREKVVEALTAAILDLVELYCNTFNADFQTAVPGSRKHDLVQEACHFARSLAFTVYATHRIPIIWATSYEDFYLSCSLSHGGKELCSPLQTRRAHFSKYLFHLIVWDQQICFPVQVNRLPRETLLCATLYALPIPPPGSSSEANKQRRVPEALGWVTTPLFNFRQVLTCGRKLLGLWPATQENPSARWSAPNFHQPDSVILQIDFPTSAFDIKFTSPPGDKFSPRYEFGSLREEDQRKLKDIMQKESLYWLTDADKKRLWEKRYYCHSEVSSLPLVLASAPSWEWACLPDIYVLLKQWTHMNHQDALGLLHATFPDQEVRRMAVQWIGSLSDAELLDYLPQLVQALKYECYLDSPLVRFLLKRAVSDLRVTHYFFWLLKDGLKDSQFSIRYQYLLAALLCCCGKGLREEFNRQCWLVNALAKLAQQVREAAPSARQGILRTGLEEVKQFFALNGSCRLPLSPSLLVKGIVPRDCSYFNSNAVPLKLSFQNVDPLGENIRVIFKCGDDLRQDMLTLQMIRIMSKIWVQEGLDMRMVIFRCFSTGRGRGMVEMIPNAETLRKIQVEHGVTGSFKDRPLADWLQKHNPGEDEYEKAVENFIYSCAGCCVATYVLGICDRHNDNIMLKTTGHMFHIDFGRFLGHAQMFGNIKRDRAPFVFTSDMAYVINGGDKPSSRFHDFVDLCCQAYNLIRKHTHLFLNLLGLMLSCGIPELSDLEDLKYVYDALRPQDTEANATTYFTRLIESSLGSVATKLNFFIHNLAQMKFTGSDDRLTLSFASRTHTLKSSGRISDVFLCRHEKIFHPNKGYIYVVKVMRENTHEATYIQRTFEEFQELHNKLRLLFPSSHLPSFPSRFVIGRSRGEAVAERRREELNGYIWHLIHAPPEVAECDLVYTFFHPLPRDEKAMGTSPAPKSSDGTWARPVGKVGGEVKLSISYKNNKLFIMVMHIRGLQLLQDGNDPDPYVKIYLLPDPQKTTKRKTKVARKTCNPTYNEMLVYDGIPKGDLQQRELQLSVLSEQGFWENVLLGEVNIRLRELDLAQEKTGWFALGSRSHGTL
UniProt Q9NRM7, sequence (whole entry, looked up): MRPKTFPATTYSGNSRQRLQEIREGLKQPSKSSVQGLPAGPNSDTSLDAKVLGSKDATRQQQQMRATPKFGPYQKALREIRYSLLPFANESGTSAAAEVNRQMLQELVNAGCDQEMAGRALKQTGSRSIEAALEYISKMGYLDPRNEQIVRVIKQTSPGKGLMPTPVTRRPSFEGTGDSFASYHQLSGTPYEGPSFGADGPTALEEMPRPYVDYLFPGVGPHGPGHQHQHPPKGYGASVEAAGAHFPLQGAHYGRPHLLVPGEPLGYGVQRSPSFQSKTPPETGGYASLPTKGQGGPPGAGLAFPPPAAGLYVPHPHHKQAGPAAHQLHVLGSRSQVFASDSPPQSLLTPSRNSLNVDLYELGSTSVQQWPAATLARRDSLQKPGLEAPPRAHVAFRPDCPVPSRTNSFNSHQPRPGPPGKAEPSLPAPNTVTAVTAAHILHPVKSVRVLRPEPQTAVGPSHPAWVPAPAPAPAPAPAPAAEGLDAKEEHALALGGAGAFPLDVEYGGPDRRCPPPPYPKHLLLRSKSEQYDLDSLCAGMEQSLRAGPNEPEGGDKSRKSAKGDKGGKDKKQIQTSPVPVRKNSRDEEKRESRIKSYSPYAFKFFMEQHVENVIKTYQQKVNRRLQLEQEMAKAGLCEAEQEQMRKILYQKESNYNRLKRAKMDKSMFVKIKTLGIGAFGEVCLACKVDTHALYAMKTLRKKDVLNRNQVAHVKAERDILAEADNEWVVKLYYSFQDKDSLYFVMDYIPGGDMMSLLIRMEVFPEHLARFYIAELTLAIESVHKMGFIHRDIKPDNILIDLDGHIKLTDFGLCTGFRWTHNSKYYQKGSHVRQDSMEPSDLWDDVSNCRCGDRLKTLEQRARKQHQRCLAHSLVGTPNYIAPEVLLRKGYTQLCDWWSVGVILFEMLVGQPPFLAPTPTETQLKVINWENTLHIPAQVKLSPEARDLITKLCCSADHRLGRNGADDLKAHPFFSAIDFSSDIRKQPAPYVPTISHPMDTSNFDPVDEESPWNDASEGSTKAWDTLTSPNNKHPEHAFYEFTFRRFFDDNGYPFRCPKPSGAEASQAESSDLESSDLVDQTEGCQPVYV
UniProt Q9Y4K4, sequence (whole entry, looked up): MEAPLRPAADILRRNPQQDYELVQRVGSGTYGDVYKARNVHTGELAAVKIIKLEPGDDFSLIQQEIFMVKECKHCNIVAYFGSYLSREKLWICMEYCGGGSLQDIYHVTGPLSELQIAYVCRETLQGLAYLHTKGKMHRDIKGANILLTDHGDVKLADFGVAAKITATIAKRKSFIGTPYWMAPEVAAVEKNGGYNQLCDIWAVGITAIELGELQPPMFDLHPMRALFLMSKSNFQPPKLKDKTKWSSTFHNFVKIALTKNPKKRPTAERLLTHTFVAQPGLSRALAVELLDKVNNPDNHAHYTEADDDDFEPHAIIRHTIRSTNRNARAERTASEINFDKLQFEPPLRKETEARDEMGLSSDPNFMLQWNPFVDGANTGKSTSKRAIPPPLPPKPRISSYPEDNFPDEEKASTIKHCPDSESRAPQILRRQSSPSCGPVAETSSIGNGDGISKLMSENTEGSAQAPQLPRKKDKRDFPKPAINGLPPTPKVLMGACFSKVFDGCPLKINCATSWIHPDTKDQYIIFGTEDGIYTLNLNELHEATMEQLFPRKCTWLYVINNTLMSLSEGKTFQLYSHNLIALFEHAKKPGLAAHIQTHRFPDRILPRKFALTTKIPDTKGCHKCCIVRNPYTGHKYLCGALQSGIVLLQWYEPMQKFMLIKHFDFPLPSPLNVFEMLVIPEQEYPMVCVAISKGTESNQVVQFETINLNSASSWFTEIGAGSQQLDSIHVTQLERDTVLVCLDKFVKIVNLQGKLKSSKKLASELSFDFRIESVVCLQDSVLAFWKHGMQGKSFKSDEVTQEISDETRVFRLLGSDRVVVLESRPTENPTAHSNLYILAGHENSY

Sample 1 — cell line: Huh-7; tested at: 10 µM; time: 24 h; measurement: viability
CC(=O)[C@@]1(O)CC[C@H]2[C@@H]3C[C@H](C)C4=CC(=O)C=C[C@]4(C)[C@@]3(F)[C@@H](O)C[C@@]21C: 103%
CC(=O)OCC1=C(C(=O)O)N2C(=O)[C@@H](NC(=O)CSc3ccncc3)[C@H]2SC1: 107%
Sc1ncnc2nc[nH]c12: 93%

Sample 2 — read-out: cell-free assay; technique: competition with immobilised ligand; tested at: 1 µM; measurement: remaining binding
SMILES: COc1cccc(CNC(=O)c2nc3scc(COCc4ccc(C(=O)O)cc4)c3c(=O)[nH]2)c1
MAP2K2 (Homo sapiens, UniProt P36507): 75.1%
TNK1 (Homo sapiens, UniProt Q13470): 100%
LATS2 (Homo sapiens, UniProt Q9NRM7): 86.2%
EGFR (Homo sapiens, UniProt P00533, del752-759): 98.7%
Tyrosine-protein kinase ABL1, non-phosphorylated (ABL1, Homo sapiens, UniProt P00519, H396P): 86.4%
MAP4K5 (Homo sapiens, UniProt Q9Y4K4): 87.3%
PIK3C2B (Homo sapiens, UniProt O00750): 80.6%
RIPK1 (Homo sapiens, UniProt Q13546): 97.4%
KIT (Homo sapiens, UniProt P10721, A829P): 69.2%
KIT (Homo sapiens, UniProt P10721, L576P): 100%
PKN1 (Homo sapiens, UniProt Q16512): 100%
Tyrosine-protein kinase ABL1, phosphorylated (ABL1, Homo sapiens, UniProt P00519, Q252H): 91.4%
SRMS (Homo sapiens, UniProt Q9H3Y6): 78.3%
AKT1 (Homo sapiens, UniProt P31749): 99.9%

Sample 3 — read-out: enzyme activity; mode: inhibitor; tested at: 0.5 µM; baseline: control; measurement: remaining activity
Target: RAC-gamma serine/threonine-protein kinase (AKT3, Homo sapiens, UniProt Q9Y243)
UniProt Q9Y243, sequence (whole entry, looked up): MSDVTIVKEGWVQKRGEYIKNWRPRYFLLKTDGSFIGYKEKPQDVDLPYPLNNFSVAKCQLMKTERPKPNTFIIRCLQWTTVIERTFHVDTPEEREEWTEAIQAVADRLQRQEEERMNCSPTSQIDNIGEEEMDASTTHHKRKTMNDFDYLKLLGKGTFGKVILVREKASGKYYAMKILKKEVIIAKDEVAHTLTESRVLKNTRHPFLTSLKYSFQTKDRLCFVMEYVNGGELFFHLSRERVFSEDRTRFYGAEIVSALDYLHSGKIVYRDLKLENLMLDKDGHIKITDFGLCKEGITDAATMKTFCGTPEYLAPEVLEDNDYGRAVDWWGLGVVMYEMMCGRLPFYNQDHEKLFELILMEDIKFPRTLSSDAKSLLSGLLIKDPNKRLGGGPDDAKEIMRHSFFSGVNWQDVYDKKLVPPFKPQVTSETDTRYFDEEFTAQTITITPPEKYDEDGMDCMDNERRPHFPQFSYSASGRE
CN(C)C[C@H]1CCn2c(c(C3=C(c4cn(C)c5ccccc45)C(=O)NC3=O)c3ccccc32)C1: 56.3%
Cc1cn(-c2cc(NC(=O)c3ccc(C)c(Nc4nccc(-c5cccnc5)n4)c3)cc(C(F)(F)F)c2)cn1: 74.8%
COc1cc2c(cc1OC)-c1[nH]nc(Nc3cccc(F)c3)c1C2: 96.1%
N#C/C(=C\c1ccc(O)c(O)c1)C(=O)NCc1ccccc1: 90.8%
Nc1cccc(-c2cc3c(Oc4cccc(O)c4)ncnc3[nH]2)c1: 96.2%
Cc1nc2cc3nc(-c4cccs4)cnc3cc2n1C: 112%
O=C1c2ccccc2-c2n[nH]c3cccc1c23: 97%
Cn1nc2c3c(cccc31)C(=O)c1ccccc1-2: 102%
CCN(CC)CCNC(=O)c1c(C)[nH]c(/C=C2\C(=O)Nc3ccc(Cl)cc32)c1C: 84.2%
O=C(NC(NC(=S)Nc1ccc(F)c([N+](=O)[O-])c1)C(Cl)(Cl)Cl)C(c1ccccc1)c1ccccc1 (stereo not drawn): 106%
c1ccc(-c2[nH]ncc2-c2ccnc3ccccc23)nc1: 92.6%
N#Cc1c(NC(=O)c2cccc3ccccc23)sc2c1CCCC2: 99.6%
O=C1C(Cl)=C(N2C(=O)CCC2=O)C(=O)c2ccccc21: 105%
Cc1cc2ncc(-c3ccccc3)nc2cc1C: 91.8%
O=C(Nc1cccc(Nc2nccc(Nc3cccc(C(F)(F)F)c3)n2)c1)C1CC1: 108%
O=c1cc(-c2cccc3c2Sc2ccccc2S3)oc(N2CCOCC2)c1: 109%
COc1cc2ncnc(Nc3cccc(Cl)c3)c2cc1OC: 98.3%
CN([C@@H](Cc1ccc(OS(=O)(=O)c2cccc3cnccc23)cc1)C(=O)N1CCN(c2ccccc2)CC1)S(=O)(=O)c1cccc2cnccc12: 104%
Ic1cccc(CSc2nnc(-c3ccncc3)o2)c1: 90.7%
CCOc1nc(NC(=O)Cc2cc(OC)ccc2OC)cc(N)c1C#N: 105%
COc1cc2ncnc(Nc3ccc(O)c(Br)c3)c2cc1OC: 101%
CCN(CC)C(=O)c1ccc(Nc2nc(OCC3CCCCC3)c3[nH]cnc3n2)cc1: 101%

Sample 4 — technique: DHFR PCA, dose-response; sample: yeast; notes: Hill fit, mean, not affinity; with: (+)-ABA, dose series; reading: lower = more sensitive; measurement: ABA EC50
Target: ABI1, truncated, D143A, DHFR fusion (Arabidopsis thaliana, UniProt P49597)
Starting sequence: PYL1, truncated, DHFR fusion (Arabidopsis thaliana, UniProt Q8VZS8); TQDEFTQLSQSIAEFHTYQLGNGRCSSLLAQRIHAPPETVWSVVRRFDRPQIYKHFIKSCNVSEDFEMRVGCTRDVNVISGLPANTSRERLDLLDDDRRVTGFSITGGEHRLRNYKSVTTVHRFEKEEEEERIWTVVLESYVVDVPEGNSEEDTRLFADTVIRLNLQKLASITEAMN
L91N: 709 µM
E128K: 2.51 µM
M68A: 9.45 µM
A158T: 0.562 µM
V136T: 11.5 µM
L112F: 6.25 µM
E174L: 35.1 µM
H55R: 0.205 µM

Further values, each from its own experiment
CC(C)n1cnc(-c2ccc(F)cc2)c1-c1ncc(C(=O)Nc2ccc(N3CCN(C)CC3)cc2)[nH]1
carbon dioxide decreased incidence (IPF patients; 60 mg once daily, adverse event): 0%
